Published values of several laboratories.
Each numbered part is a random draw from the data of one study; scales do not carry over between parts.
Chain of UniProt P08631 (whole entry, looked up): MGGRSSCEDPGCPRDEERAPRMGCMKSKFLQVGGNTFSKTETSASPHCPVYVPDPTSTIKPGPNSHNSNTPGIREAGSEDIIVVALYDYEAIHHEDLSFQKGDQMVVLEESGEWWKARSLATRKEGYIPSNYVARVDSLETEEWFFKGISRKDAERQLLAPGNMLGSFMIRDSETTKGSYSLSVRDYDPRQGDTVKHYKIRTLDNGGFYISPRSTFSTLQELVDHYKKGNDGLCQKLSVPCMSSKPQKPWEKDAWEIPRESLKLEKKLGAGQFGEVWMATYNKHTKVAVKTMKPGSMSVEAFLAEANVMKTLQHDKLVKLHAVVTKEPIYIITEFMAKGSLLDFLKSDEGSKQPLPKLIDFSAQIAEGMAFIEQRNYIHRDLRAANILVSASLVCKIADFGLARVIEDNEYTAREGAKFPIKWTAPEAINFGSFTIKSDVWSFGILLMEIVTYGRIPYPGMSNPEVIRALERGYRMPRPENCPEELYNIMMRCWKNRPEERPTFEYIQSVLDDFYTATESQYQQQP
Chain of UniProt Q6ZN16 (whole entry, looked up): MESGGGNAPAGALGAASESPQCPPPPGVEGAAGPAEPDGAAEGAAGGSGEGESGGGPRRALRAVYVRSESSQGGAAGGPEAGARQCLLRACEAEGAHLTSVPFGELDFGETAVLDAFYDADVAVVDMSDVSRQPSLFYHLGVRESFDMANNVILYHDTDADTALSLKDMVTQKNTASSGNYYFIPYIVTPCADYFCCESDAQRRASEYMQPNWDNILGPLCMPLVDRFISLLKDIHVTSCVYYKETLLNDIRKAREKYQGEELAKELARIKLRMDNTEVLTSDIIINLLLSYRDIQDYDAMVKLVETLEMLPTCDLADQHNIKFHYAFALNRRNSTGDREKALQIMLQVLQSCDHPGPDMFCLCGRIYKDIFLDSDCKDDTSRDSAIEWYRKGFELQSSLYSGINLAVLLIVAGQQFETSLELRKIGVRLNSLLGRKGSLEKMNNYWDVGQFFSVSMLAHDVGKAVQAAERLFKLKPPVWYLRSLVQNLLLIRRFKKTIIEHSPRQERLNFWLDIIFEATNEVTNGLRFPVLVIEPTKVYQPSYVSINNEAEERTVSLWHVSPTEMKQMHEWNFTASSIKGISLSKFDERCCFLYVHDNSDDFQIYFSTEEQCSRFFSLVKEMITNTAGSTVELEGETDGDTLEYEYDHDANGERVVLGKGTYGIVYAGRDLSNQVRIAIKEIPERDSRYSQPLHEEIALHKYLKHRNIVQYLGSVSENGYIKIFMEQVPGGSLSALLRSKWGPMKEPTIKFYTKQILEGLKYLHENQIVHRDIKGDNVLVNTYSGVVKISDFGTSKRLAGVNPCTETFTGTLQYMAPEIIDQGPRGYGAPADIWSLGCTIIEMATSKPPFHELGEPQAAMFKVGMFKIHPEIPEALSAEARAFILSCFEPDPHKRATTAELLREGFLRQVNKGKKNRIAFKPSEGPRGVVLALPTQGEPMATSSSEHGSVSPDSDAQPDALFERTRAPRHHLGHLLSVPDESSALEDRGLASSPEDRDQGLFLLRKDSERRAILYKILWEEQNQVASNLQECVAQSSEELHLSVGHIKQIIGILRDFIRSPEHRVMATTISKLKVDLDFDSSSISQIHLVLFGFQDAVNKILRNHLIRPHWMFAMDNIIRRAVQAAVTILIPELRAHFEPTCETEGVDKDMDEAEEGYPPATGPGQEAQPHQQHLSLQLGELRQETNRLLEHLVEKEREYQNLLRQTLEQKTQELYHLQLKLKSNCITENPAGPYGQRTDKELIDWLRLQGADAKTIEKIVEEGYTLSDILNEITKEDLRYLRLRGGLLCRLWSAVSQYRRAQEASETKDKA
Chain of UniProt Q9NRP7 (whole entry, looked up): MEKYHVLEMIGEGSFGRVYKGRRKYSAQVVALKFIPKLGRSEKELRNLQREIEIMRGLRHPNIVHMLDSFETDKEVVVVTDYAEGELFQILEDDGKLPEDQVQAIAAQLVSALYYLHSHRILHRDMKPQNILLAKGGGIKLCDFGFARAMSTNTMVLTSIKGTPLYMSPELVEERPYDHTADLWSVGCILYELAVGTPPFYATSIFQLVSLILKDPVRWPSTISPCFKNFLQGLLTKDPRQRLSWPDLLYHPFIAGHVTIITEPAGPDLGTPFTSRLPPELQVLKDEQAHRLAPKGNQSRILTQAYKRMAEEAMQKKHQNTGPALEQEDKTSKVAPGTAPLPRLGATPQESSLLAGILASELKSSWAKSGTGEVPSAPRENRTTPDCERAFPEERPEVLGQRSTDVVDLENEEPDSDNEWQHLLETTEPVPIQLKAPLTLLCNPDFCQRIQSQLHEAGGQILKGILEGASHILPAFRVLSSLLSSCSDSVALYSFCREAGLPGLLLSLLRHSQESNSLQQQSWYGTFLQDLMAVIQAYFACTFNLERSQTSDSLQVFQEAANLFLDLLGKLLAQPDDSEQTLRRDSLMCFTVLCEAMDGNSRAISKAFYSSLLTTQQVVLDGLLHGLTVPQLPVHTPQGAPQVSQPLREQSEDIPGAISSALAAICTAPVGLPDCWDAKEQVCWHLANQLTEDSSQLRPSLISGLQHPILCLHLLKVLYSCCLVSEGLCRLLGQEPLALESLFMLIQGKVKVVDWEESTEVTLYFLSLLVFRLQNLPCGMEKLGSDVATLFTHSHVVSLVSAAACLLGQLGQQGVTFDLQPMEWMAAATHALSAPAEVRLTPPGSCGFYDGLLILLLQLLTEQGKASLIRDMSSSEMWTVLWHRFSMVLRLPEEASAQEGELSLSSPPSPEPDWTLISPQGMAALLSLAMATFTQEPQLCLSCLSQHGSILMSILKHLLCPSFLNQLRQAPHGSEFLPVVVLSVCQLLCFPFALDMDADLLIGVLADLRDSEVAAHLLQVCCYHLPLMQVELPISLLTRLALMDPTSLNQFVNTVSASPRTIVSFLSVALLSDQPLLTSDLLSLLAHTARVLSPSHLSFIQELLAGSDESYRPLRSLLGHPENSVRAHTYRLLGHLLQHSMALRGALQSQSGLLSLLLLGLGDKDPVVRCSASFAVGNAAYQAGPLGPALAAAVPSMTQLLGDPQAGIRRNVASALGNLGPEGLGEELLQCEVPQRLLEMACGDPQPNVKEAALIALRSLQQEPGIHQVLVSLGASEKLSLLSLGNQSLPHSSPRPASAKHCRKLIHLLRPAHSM
Chain of UniProt Q9UK32 (whole entry, looked up): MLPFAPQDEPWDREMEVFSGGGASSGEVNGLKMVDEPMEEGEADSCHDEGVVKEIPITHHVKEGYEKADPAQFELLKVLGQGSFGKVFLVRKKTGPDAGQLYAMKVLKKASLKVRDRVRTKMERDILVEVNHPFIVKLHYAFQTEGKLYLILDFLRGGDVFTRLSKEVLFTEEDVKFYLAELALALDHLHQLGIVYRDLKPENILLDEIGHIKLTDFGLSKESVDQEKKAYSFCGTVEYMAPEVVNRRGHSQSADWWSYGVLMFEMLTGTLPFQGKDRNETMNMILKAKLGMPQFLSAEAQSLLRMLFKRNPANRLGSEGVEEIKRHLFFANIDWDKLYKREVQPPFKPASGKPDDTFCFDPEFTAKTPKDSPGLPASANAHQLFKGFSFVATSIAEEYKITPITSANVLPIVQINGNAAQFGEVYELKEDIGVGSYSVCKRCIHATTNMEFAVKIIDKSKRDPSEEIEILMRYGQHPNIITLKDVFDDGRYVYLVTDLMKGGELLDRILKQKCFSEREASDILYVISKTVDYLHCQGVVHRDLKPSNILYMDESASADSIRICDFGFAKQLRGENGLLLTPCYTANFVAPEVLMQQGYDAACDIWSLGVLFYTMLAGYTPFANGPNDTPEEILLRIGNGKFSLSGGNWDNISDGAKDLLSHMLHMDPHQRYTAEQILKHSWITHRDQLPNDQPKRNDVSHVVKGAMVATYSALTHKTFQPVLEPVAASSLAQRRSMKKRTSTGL

Study 1 — method: RNA Bind-n-Seq; form: RNA; sample: in vitro; tested at: 20 nM; notes: 6-mer, flanks averaged, single round; together with: 150 mM LiCl; baseline: input library; reading: higher = stronger binding
Target: TAR DNA-binding protein 43, full length, His tag (TARDBP, Homo sapiens, UniProt Q13148, residues 1-414)
For `ACCAUC`, “6-mer enrichment (R)” read 0.866.
`GGCGCU` — result for “6-mer enrichment (R)”: 0.982.
Under “6-mer enrichment (R)”, `CGAGUA` is recorded as 0.933.
Under “6-mer enrichment (R)”, `GCAAGU` is recorded as 0.975.
`AAGGAU` — result for “6-mer enrichment (R)”: 0.871.
For `AAAUGA`, “6-mer enrichment (R)” read 0.855.
Under “6-mer enrichment (R)”, `GUUCCU` is recorded as 0.946.
Under “6-mer enrichment (R)”, `UUGGAU` is recorded as 1.01.

Study 2 — effect on: cell-free assay; method: competition with immobilised ligand; tested at: 1 µM
Structure (SMILES): O=C(NC[C@@H]1[C@H]2CN(C(=O)OCc3cc(C(F)(F)F)cc(C(F)(F)F)c3)C[C@@H]12)c1ccc2[nH]nnc2c1
Non-receptor tyrosine-protein kinase TYK2, JH1 (TYK2, Homo sapiens, UniProt P29597) — remaining binding: 100%.
For BMP2K (Homo sapiens, UniProt Q9NSY1): remaining binding read 85%.
The remaining binding was 94% (MARK4 (Homo sapiens, UniProt Q96L34)).
The remaining binding was 97% (MELK (Homo sapiens, UniProt Q14680)).
For SIK2 (Homo sapiens, UniProt Q9H0K1): remaining binding read 100%.
The remaining binding was 71% (MAP3K1 (Homo sapiens, UniProt Q13233)).
Ribosomal protein S6 kinase alpha-6, C-terminal kinase domain (RPS6KA6, Homo sapiens, UniProt Q9UK32) — remaining binding: 86%.
The remaining binding was 83% (MAP2K1 (Homo sapiens, UniProt Q02750)).
It gave 72% for remaining binding (EGFR (Homo sapiens, UniProt P00533, del746-750)).
It gave 100% for remaining binding (STK36 (Homo sapiens, UniProt Q9NRP7)).
For HCK (Homo sapiens, UniProt P08631): remaining binding read 100%.
MAP3K15 (Homo sapiens, UniProt Q6ZN16) — remaining binding: 53%.

Study 3 — method: protein binding microarray; form: double-stranded DNA, one strand shown; sample: in vitro; tested at: not given; baseline: not given; reading: higher = stronger binding
Target: Histone acetyltransferase KAT6A, both winged helices, GST fusion (KAT6A, Homo sapiens, UniProt Q92794, residues 1-181)
Notes: 8-mer, flanks averaged, mean of 2 arrays, mostly near background
Target sequence (chain): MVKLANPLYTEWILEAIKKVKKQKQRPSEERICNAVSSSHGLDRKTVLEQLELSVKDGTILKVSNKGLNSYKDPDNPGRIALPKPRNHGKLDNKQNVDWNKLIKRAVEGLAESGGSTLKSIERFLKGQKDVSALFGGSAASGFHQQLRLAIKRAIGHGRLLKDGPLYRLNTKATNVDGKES
The E-score of `GAGACCGA` is reported as 0.0407.
The E-score of `ACTTTATG` is reported as -0.245.
`AGTCACGG` has an E-score of 0.221.
`CATGAGGC` gave an E-score of -0.063.
The E-score of `AGGAAGTA` is reported as -0.139.
The E-score of `GGTGCCAA` is reported as -0.193.
The E-score of `AGCACCCG` is reported as 0.221.
`GATAATCA` gave an E-score of 0.0612.

Study 4 — effect on: enzyme activity; action: inhibitor; tested at: 0.5 µM; baseline: control
Target: BDNF/NT-3 growth factors receptor (NTRK2, Homo sapiens, UniProt Q16620)
Chain of UniProt Q16620 (whole entry, looked up): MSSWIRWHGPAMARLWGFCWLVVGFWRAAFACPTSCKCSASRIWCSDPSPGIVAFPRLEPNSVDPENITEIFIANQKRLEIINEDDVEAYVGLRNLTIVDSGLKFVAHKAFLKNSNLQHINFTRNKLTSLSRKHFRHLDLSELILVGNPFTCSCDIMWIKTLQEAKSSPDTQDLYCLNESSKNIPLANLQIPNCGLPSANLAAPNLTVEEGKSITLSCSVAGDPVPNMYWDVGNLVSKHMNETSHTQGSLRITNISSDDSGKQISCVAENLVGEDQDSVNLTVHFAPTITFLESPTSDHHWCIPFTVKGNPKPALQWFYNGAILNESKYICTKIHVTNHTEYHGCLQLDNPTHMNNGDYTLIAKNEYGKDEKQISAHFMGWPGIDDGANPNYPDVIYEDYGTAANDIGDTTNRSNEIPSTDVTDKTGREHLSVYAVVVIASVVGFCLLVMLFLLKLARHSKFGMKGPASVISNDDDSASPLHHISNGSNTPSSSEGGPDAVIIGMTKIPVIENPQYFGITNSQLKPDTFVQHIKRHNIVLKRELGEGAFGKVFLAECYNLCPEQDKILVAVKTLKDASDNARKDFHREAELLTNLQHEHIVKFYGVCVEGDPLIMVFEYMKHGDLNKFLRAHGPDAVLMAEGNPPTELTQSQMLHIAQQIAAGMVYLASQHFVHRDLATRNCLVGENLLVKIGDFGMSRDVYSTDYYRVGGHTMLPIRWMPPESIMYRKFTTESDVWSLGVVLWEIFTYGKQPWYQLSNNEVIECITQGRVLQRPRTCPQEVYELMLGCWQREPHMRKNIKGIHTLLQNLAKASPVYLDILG
`CNC(=O)c1cc(Oc2ccc(NC(=O)Nc3ccc(Cl)c(C(F)(F)F)c3)cc2)ccn1` gave a remaining activity of 90%.
The remaining activity of `COc1ccc(CNC(=O)Nc2ncc([N+](=O)[O-])s2)cc1` is reported as 85.6%.
For `Nc1[nH]nc2nc3ccccc3nc12`, the remaining activity was 96.4%.
`O=S(=O)(c1cccc2cnccc12)N1CCCNCC1` gave a remaining activity of 102%.
For `COc1cc2ncnc(Nc3ccc(F)c(Cl)c3)c2cc1OCCCN1CCOCC1`, the remaining activity was 98.2%.
The remaining activity of `CC(C)[C@H](CO)Nc1nc(Nc2cc(N)cc(Cl)c2)c2ncn(C(C)C)c2n1` is reported as 3.04%.
`Nc1ncnc2n[nH]c(Nc3ccc(F)cc3)c12` has a remaining activity of 101%.
`COc1ccc(OC)c2c(=S)c3ccccc3[nH]c12` has a remaining activity of 94%.
With `OCC(O)CCON=C1C(c2c(O)[nH]c3ccccc23)=Nc2ccccc21` (stereo not drawn) the remaining activity was 1.62%.
With `CO[C@H]1C[C@@H]2CC[C@@H](C)[C@@](O)(O2)C(=O)C(=O)N2CCCC[C@H]2C(=O)O[C@H]([C@H](C)C[C@@H]2CC[C@@H](O)[C@H](OC)C2)CC(=O)[C@H](C)/C=C(\C)[C@@H](O)[C@@H](OC)C(=O)[C@H](C)C[C@H](C)/C=C/C=C/C=C/1C` the remaining activity was 106%.
The remaining activity of `Oc1ccc(-c2nc(-c3ccncc3)c(-c3ccc(F)cc3)[nH]2)cc1` is reported as 102%.
`Cn1c2ccccc2c2c3c(c4c5ccccc5n(CCC#N)c4c21)CNC3=O` has a remaining activity of 0.815%.
For `O=c1c2ccccc2[nH]c(=S)n1CCN1CCC(=C(c2ccc(F)cc2)c2ccc(F)cc2)CC1`, the remaining activity was 106%.
For `O=C1NC(=O)C(c2cn(CCCn3ccnc3)c3ccccc23)=C1Nc1ccccc1`, the remaining activity was 85.8%.

Repeated from above (study 2):
The remaining binding was 83% (MAP2K1 (Homo sapiens, UniProt Q02750)).
For BMP2K (Homo sapiens, UniProt Q9NSY1): remaining binding read 85%.
The remaining binding was 71% (MAP3K1 (Homo sapiens, UniProt Q13233)).
For HCK (Homo sapiens, UniProt P08631): remaining binding read 100%.
It gave 100% for remaining binding (STK36 (Homo sapiens, UniProt Q9NRP7)).
